Assay results pooled from the literature.
Each numbered part is a random draw from the data of one study; scales do not carry over between parts. Substitutions count along the parent as printed.

Set 1 — technique: protein-binding microarray; molecule type: double-stranded DNA, one strand shown; medium: in vitro; tested at: 0.8 µM; setting: whole 60-bp probe, no competitor; reading: higher = stronger binding; shared flanks, not repeated: … GTCTTGATTCGCTTGACGCTGCTG
Target: Centromere-binding protein 1, full length, N-terminal tag (CBF1, Saccharomyces cerevisiae, UniProt P17106, residues 1-351)
Sequence of UniProt P17106 (whole entry, looked up): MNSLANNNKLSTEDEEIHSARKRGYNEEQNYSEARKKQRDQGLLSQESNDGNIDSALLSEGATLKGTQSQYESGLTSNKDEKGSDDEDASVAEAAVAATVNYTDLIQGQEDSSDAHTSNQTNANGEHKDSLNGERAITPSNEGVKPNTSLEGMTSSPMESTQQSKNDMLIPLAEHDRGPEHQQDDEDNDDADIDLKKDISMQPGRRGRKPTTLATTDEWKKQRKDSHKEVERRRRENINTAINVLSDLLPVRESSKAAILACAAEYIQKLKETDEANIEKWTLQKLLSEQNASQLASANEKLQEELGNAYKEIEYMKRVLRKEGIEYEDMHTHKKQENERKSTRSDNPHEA
| Sequence | fluorescence intensity |
| --- | --- |
| CCTAACTACTATATCCATCACGTATAGCTTCGTACA | 602 a.u. |
| CTAAAAATACAAAATAACGTGGATGTATTAAACTTC | 585 a.u. |
| CTAAGAAGGGAGGCTGTCACCAGGTTCCCCTATTTC | 510 a.u. |
| GAACTTTTTATTCGTGATGTTGAGTAAGGTACATAG | 595 a.u. |
| GAACTTTAAAACTGTAACATCATATCGAAGGTATAG | 542 a.u. |
| GAAAGACATGTGCGTCACGAAAAAAGAAATCAATAG | 772 a.u. |
| CTATTTTTTCTGTCAGGTGCGGCCCATCATCGATTC | 1640 a.u. |
| CTATTTTAAGAGCATGATGTTGTATATAAATATTTC | 618 a.u. |

Set 2 — technique: EMSA with sequencing; molecule type: double-stranded DNA, one strand shown; medium: in vitro; tested at: 10 and 20 nM; relative to: negative control set to 0; reading: higher = stronger binding
Target: Hepatocyte nuclear factor 3-alpha (Foxa1, Mus musculus, UniProt P35582, residues 1-468, full length assumed)
Setting: whole designed probe, mean of two concentrations, ends assumed
Shared flanks, not repeated: GTGAGCGGTGCCCATTGATGGGGAAC … TTTCACTGGGATCGTGGGGAC
Target sequence (chain): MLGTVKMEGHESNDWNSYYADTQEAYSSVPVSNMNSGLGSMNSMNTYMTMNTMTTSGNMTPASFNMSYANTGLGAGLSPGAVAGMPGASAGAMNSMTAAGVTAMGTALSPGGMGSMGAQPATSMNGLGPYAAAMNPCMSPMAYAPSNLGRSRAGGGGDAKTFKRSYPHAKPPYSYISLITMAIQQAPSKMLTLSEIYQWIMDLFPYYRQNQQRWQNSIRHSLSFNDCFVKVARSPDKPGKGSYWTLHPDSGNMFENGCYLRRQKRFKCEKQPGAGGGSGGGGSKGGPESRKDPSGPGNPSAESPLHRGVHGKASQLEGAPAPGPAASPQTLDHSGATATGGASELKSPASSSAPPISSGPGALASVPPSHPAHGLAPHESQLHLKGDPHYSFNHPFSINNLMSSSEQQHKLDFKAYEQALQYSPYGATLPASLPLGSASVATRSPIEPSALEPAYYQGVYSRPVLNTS
| Sequence | normalised bound fraction |
| --- | --- |
| ATCTTCCCCCTCTTCCTTGCCCCACCAGCTCACCTTCCCGGGTTATTTGCAGATAGGAAAATAAATAAAGAGCCCCGTTGTTAACCCTCTTCTGGCGCAAACTGCTGTTTGCTCTGGATGAATCATGGTCCTTTGGCGACGCCAGGCTCCGGGAGAGCAAAGCACCGTGTCAGGGCCATGATCCGGGGTGGCC | 0.365 ratio |
| CAGTCACAGATTTGCATACAATACAATTATGTATTGGCTATTTACAATTTACAGTAGTGGTTCTTCCTCTGAGAAATATAAGTACAAAAGCTAAGTAATCTATGAGGTACTGCCATTTGGGATTTATTATGTGTCATAGCTTAAAGAACTGGCCTTTAGCAAATATTAAACAAATCAACCTGAATAAAATAGT | 0.278 ratio |
| ATCTTCCCCCTCTTCCTTGCCCCACCAGCTCACCTTCCCGGGTTATTTGCAGATAGGAAAATAAATAAAGCCGGCATTCGTTAACCCTCTTCTGGCGCAAACTGCTGTTTGCTCTGCATCTAACATGGTCCTTACGCGACGCCAGGCTCCGGGAGAGCAAAGCACCGTGTCAGGCGCATGATCCGGGCTCGCC | 0.353 ratio |
| AGTTCAGAATAGTATTTCTACTGAATGTGTATTGTTTTACCCATCCTAAAGTTGAAGAATCACAAGTCAAACCATCATAAGTCCAGGATTATTTGTTTATATATCTTGTAGGGAAGGGAAAAGTGAAAGGAAATAATGTTCTTTCTACCCTTCTACATTATTGGCTGGAGCCCCTGTAACAAAAGACAAATTA | 0.332 ratio |
| TTTTTGTTAACACTTAGATATGCCTTCCCTTCTCAAGGAGGATTATCCTATAAACTTAACCTTTGAATTAAAGATATTTATTGACTAACAATGTAATCTGGAAAAACTTTAAAATCTCAACAGAAATTATTTTCTCTTTAAATACTTTATTACTTTTTATTTTACAGCAACTCACATTTATGGCTTAATATGG | 0.0569 ratio |
| TTAAGTGAAATCAACTGAAACCTTACTTTTTTTTGCTTTTATACCTAAAATAGAGGATTTAGATATATTTTCTAGGAACGATGATGTAATATGTAAACAAGGAATTTTGGTAATGTTTGAAATATTTTCTCATGGGGACACACCACTAAATTTGTCACCTCTAAAACAGTACTTAGGTTAAATGCTTTTTAAA | 0.293 ratio |
| AATAGCGCTCTGGAGAGAAGGTCCGTTCCATGCCCAGGTAGGGAGGAGGGGGAAAAATGATACTGGCGGGCAGGGAGAGGGGAAGGCAAGAAAGCAAACAGGCGTGGAAGAGCTGAGTCGACTAATCTGACTTCTTTTGTCTGTAGACGGGGGAATCCAGGGTGACTGGGTATAATCTGTATTATCTAGGTCC | 0.0563 ratio |
| ATCTTCCCCCTCTTCCTTGCCCCACCAGCTCACCTACGGGGGTTATTTGCAGATAGGAAAATAAATAAAGCCGGCATTCGTTAACCCTCTTCTGGCGCAAACTGCTGTTTGCTCTGGATCTAACATGGTCCTTTGGCGAGGCGTGGCTCCGGGAGAGCAAAGCACCGTGTCAGGGCCATGATCCGGGGTGGCC | 0.347 ratio |

Set 3 — target: CCNE2, cyclin fold, Cln2 fusion (human); technique: yeast growth competition, sequencing; medium: yeast; setting: strong parent motif; relative to: not given; reading: higher = stronger binding; parent: viral docking peptide; YKVKRRLVFGADD
| Variant | normalised enrichment score |
| --- | --- |
| YKVIRRLVFGADD [K4I] | 1.83 |
| YKVKCRLVFGADD [R5C] | 0.877 |
| YKVKRYLVFGADD [R6Y] | 1.14 |
| YKVKPRLVFGADD [R5P] | -0.0371 |
| YKVKRRLVCGADD [F9C] | 0.57 |
| YKPKRRLVFGADD [V3P] | 1.44 |
| YKVKRRLVFGEDD [A11E] | 6 |
| YKVLRRLVFGADD [K4L] | 0.812 |
| AKVKRRLVFGADD [Y1A] | 5.31 |
| YKVDRRLVFGADD [K4D] | 0.247 |
| YKVKRRLVFGAFD [D12F] | 5.2 |
| YKVKRRLVFGAWD [D12W] | 4.5 |
| YKVPRRLVFGADD [K4P] | 1.2 |

Single results of other studies
| Molecule | target or system | test | system | conditions | quantity | result |
| --- | --- | --- | --- | --- | --- | --- |
| SRCAP (Homo sapiens, UniProt Q6ZRS2) | CFDP1 (Homo sapiens, UniProt Q9UEE9) | cross-linking MS | cell fractions | with: DMTMM | cross-linked residues | E2301 to K230 |
| N#CN1CC[C@H](C(=O)Nc2nc3c(s2)CN(C(=O)CN=[N+]=[N-])CC3)C1 | D(1B) dopamine receptor (DRD5, Homo sapiens, UniProt P21918) | ligand displacement | – | 10 µM | inhibition | 7.55% |
| FLNA (Homo sapiens, UniProt P21333) | AFG2A (Homo sapiens, UniProt Q8NB90) | cross-linking MS | – | hits only | interaction screen | cross-linked |

Repeated from above (set 3):
| Variant | normalised enrichment score |
| --- | --- |
| YKVKCRLVFGADD [R5C] | 0.877 |
| YKVPRRLVFGADD [K4P] | 1.2 |
| YKVLRRLVFGADD [K4L] | 0.812 |
| YKVIRRLVFGADD [K4I] | 1.83 |
| YKVKRRLVCGADD [F9C] | 0.57 |
